Measured values gathered from unrelated publications.
Each line is one published result; not all experiments were run side by side. “And” joins repeats or separate records; there may be more than shown. ± marks the error that the study gave. Converted amounts (≈) assume the structure as drawn.
Chain of UniProt Q9BXA7 (whole entry, looked up): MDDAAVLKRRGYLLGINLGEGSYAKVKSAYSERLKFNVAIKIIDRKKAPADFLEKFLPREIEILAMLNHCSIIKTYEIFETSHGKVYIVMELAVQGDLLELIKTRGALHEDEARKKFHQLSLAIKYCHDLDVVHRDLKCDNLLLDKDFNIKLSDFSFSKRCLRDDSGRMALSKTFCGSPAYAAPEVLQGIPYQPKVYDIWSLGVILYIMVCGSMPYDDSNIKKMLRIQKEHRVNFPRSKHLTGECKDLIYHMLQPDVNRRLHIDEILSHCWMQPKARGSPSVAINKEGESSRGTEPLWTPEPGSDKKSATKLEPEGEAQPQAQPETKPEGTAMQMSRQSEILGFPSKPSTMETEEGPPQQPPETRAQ

`COc1cccc([C@]2(C)CCN(C[C@@H](NC(=O)[C@H]3Cc4ccc(O)cc4CN3)C(C)C)C[C@@H]2C)c1` — result for “reversal of U-50488 diuresis”: -98% (kappa opioid receptor; antagonist; Long-Evans rat; subcutaneous, 30 mg/kg, 1 week after dosing, with: U-50488; reference: U-50488 alone).
For `COc1c(CCC[P+](c2ccccc2)(c2ccccc2)c2ccccc2)cc2c(c1OC)OCO2.[I-]`, the TGI was -5.93 log M (MDA-MB-468; SRB).
`COc1cc(Nc2ncc(F)c(Nc3ccc4c(n3)NC(=O)C(C)(C)O4)n2)cc(OC)c1OC` has an IC50 of over 10000 nM (SKCa potassium channel).
With `CN1CCN(c2ccc(Nc3nccc(-c4cccc([N+](=O)[O-])c4)n3)cc2C(F)(F)F)CC1` the remaining binding was 0.55% (human FLT3 ITD; 10000 nM; reference: control).
`C[N+](C)(C)CCOP(=O)(O)O` gave a ΔTm of 3.48 °C (SAR11_0271 Candidatus Pelagibacter sp.; differential scanning fluorimetry; concentration not given; higher = stronger binding).
For `C[C@H](C(=O)N[C@H]1COc2ccccc2[C@@H]1S(C)(=O)=O)c1ccc(F)cc1`, the inhibition was -22% (sodium channel site 2, rat; binding; 10 µM, Eurofins selectivity panel).
For `Oc1cccc(N2[C@@H]3CC[C@H]2CN(CCCc2ccccc2)C3)c1`, the Emax was 8.68% (mu opioid receptor; β-arrestin-2 recruitment, agonist, TRUPATH BRET; reference: DAMGO).
For `COc1nc(NC(C)C)nc(NC(C)C)n1`, the Emax was 33.6% (FXR; Bsep mRNA induction, agonist, qPCR, refers to: Bsep; Oryzias latipes, larvae; 10 µM, 48 h; reference: maximal induction by reference agonist).
With `COc1cc2c3c(n(CCCNCCO)c(=O)c2cc1OC)-c1cc2c(cc1C3=O)OCO2` the ΔTm was 27.2 ± 2.5 °C (MYC G-quadruplex DNA; FRET melting; 2.0 µM, pH 7.0, with: K+ 10 mM).
For `CC[C@H](C)[C@@H]1NC(=O)[C@@H]2CCCN2C(=O)[C@H](CC(C)C)NC(=O)[C@H](CC(C)C)NC(=O)CNC(=O)[C@@H](NC(=O)[C@@H](NC(=O)[C@H](CC(=O)O)NC(=O)CNC(=O)[C@@H](NC(=O)[C@H](C)NC(=O)CNC(=O)[C@H](CCCCN)NC(=O)[C@H](CC(C)C)NC(=O)[C@H](CC(C)C)NC(=O)[C@H](CCCCN)NC(=O)CNC(=O)[C@@H](NC(=O)[C@@H](N)CC(C)C)C(C)C)C(C)C)C(C)C)CSSC[C@@H](C(=O)O)NC1=O`, “log2 fold change” read 0.635 (RNA-seq, refers to: Snhg11 mRNA; mouse traumatic brain injury, frontal cortex and hippocampus; dose not given; reference: TBI plus compound vs TBI).
`CC[C@H](C)[C@H](NC(=O)[C@H](C)NC(=O)[C@H](CCCCN)NC(=O)[C@H](CC(C)C)NC(=O)[C@H](C)NC(=O)[C@@H](NC(=O)[C@H](Cc1c[nH]cn1)NC(=O)[C@H](CC(C)C)NC(=O)[C@@H](NC(=O)[C@@H](NC(=O)[C@H](CCCCN)NC(=O)[C@H](C)NC(=O)[C@H](C)NC(=O)[C@H](CO)NC(=O)[C@H](CCCCN)NC(=O)[C@H](Cc1ccccc1)NC(=O)[C@@H](NC(=O)[C@H](CCCCN)NC(=O)[C@H](CC(C)C)NC(=O)[C@H](Cc1ccccc1)NC(=O)[C@H](CO)NC(=O)[C@H](CCCCN)NC(=O)[C@H](Cc1c[nH]c2ccccc12)NC(=O)[C@H](CCCCN)NC(C)=O)[C@@H](C)O)[C@@H](C)O)C(C)C)[C@@H](C)O)C(=O)N[C@@H](CO)C(=O)N[C@@H](CO)C(N)=O` gave an MIC90 of 8 µg/mL (≈ 2.73 µM) (Staphylococcus aureus; MSSA; 67 strains).
`C[C@H]1CN(c2n[nH]c3nc(N[C@H]4CC[C@H](NS(=O)(=O)CCC(F)(F)F)CC4)ncc23)CCO1` gave a remaining binding of 1.19 (Large ribosomal subunit protein uL5 (Homo sapiens, UniProt P62913); Kinobeads competition, refers to: RPL11; 0.16 µM, unit not given; reference: vehicle).
`CC(C)[C@@H](CN1CC[C@@](C)(c2cccc(O)c2)[C@@H](C)C1)NC(=O)[C@@H]1Cc2ccc(O)cc2CN1C` — result for “reversal of U-50488 diuresis”: -25% (kappa opioid receptor; antagonist; Long-Evans rat; subcutaneous, 30 mg/kg, 1 week after dosing, with: U-50488; reference: U-50488 alone).
`C/C=C1/C(=O)C[C@H]2[C@@H]3CCC4=CC(=O)CC[C@]4(C)[C@H]3CC[C@]12C` — result for activity: “inactive” (FXR; HEK293 cells; concentration not given).
`CC[C@H](C)[C@H](NC(=O)[C@H](Cc1ccccc1)NC(=O)[C@H](CCC(=O)O)NC(=O)[C@H](CCCNC(=N)N)NC(=O)[C@H](C)NC(=O)[C@H](C)NC(=O)[C@H](CCC(N)=O)NC(=O)[C@H](CCC(=O)O)NC(=O)[C@H](CCC(=O)O)NC(=O)[C@H](CC(C)C)NC(=O)[C@H](Cc1ccc(O)cc1)NC(=O)[C@H](CO)NC(=O)[C@H](CO)NC(=O)[C@@H](NC(=O)[C@H](CC(=O)O)NC(=O)[C@H](CO)NC(=O)[C@@H](NC(=O)[C@H](Cc1ccccc1)NC(=O)[C@@H](NC(=O)CNC(=O)[C@H](CCC(=O)O)NC(=O)[C@H](C)NC(=O)CCc1c[nH]cn1)[C@@H](C)O)[C@@H](C)O)C(C)C)C(=O)N[C@@H](C)C(=O)N[C@@H](Cc1c[nH]c2ccccc12)C(=O)N[C@@H](CC(C)C)C(=O)N[C@H](C(=O)N[C@@H](CCCNC(=N)N)C(=O)NCC(=O)N[C@@H](CCCNC(=N)N)C(=O)N[C@@H](CCCCNC(=O)COCCOCCNC(=O)COCCOCCNC(=O)CC[C@H](NC(=O)CCCCCCCCCCCCCCCCC(=O)O)C(=O)O)C(=O)NCC(=O)NCC(=O)N[C@@H](CO)C(=O)N[C@@H](CCCCNc1c(NCCCCCN(O)C(=O)CCC(=O)NCCCCCN(O)C(=O)CCC(=O)NCCCCCN(O)C(C)=O)c(=O)c1=O)C(=O)O)C(C)C` [zirconium-89 labelled] has a tissue uptake of 0.05 %ID/g (ex vivo gamma counting; rat, intestine content; subcutaneous, 3 nmol/kg, 72 h, with: [89Zr]-labelled peptide).
The IC50 of `Nc1ncnc2c1ncn2[C@@H]1O[C@H](COP(=O)(O)OP(=O)(O)OP(=O)(O)O)[C@@H](O)[C@H]1O` is reported as 19 nM (purinergic P2Y receptor; radioligand binding).
`CO[C@H]1C[C@@H]2CC[C@@H](C)[C@@](O)(O2)C(=O)C(=O)N2CCCC[C@H]2C(=O)O[C@H]([C@H](C)C[C@@H]2CC[C@@H](OC(=O)NCCOCCOCCOCCOCCOCCOCCOCCOCCC(=O)N3CCc4cc(Cn5nc(-c6ccc7oc(N)nc7c6)c6c(N)ncnc65)ccc4C3)[C@H](OC)C2)C[C@@H](O)[C@H](C)/C=C(\C)[C@@H](O)[C@@H](OC)C(=O)[C@H](C)C[C@H](C)/C=C/C=C/C=C/1C`: “incidence of Diarrhea TRAE” 0% (patients with advanced solid tumours; intravenous, 1.6 mg/3 mg weekly, grade ≥3).
`c1ccc(C(NCCNC(c2ccccc2)c2ccccc2)c2ccccc2)cc1` gave an inhibition of -21% (GABAA central, rat; binding; 10 µM, Eurofins selectivity panel, with: flunitrazepam).
`COc1cc(CCC[P+](c2ccccc2)(c2ccccc2)c2ccccc2)c(OC)c2c1OCO2.[I-]` gave an LC50 of -4.19 log M (M14; SRB).
For `COc1cc2c(Oc3ccc4[nH]c(C)cc4c3F)ccnc2cc1OCC1(N)CC1`, “grade 3 Nausea” read 0% (paediatric recurrent refractory sarcoma; 10 mg).
`CN(C)C(=O)c1cc2cnc(Nc3ccc(C(=O)NCCCCCCOc4cccc5c4C(=O)N(C4CCC(=O)NC4=O)C5=O)cc3)nc2n1C1CCCC1` (stereo not shown) has a DC50 of 229 nM (N-Myc (human); degrader, immunoblotting, refers to: N-Myc; Kelly; 4 h).
The IC50 of `CCC(C)Nc1c([N+](=O)[O-])cc(C(C)(C)C)cc1[N+](=O)[O-]` (stereo not shown) is reported as 0.000385 µg/mL (anti-compound mouse monoclonal antibody; antibody binding, indirect competitive ELISA; pH 7.4, 1% methanol, with: coating antigen 0.25 µg/mL).
`NCCc1ccc(O)cc1` gave a ΔTm of 2.15 °C and 3.85 °C (SAR11_0271 Candidatus Pelagibacter sp.; differential scanning fluorimetry; concentration not given; higher = stronger binding).
The EC50 of `CCc1ccc(O)cc1` is reported as 170 nM (Aedes aegypti OR13 with Orco; agonist, two-electrode voltage clamp; Xenopus oocytes).
The inhibition of `COc1ccc(N2C(=O)N(c3c(C)cccc3Cl)Cc3cnc(Nc4ccc(C5CCN(C)CC5)cc4OC)nc32)nc1` is reported as 87% (TSSK1B (Homo sapiens, UniProt Q9BXA7); kinase activity, inhibitor; 0.5 µM, TSSK1).
With `NCCc1ccccc1` the ΔTm was 2.28 °C (SAR11_0271 Candidatus Pelagibacter sp.; differential scanning fluorimetry; concentration not given; higher = stronger binding).
Under activity, `O=C1NC(=O)[C@](CNC(=O)c2cnn(-c3ccccc3)n2)(C2CC2)N1` is recorded as “inactive” (trypsin; concentration not given).
The inhibition of `O=C(Nc1cccnn1)N1CCN([C@@H]2CCOc3cc(C(F)(F)F)ccc32)CC1` is reported as -7% (GABA transporter; binding; 20 µM).

For quick reference, copied from above:
For `Oc1cccc(N2[C@@H]3CC[C@H]2CN(CCCc2ccccc2)C3)c1`, the Emax was 8.68% (mu opioid receptor; β-arrestin-2 recruitment, agonist, TRUPATH BRET; reference: DAMGO).
For `COc1nc(NC(C)C)nc(NC(C)C)n1`, the Emax was 33.6% (FXR; Bsep mRNA induction, agonist, qPCR, refers to: Bsep; Oryzias latipes, larvae; 10 µM, 48 h; reference: maximal induction by reference agonist).
With `COc1cc2c3c(n(CCCNCCO)c(=O)c2cc1OC)-c1cc2c(cc1C3=O)OCO2` the ΔTm was 27.2 ± 2.5 °C (MYC G-quadruplex DNA; FRET melting; 2.0 µM, pH 7.0, with: K+ 10 mM).
For `CC[C@H](C)[C@@H]1NC(=O)[C@@H]2CCCN2C(=O)[C@H](CC(C)C)NC(=O)[C@H](CC(C)C)NC(=O)CNC(=O)[C@@H](NC(=O)[C@@H](NC(=O)[C@H](CC(=O)O)NC(=O)CNC(=O)[C@@H](NC(=O)[C@H](C)NC(=O)CNC(=O)[C@H](CCCCN)NC(=O)[C@H](CC(C)C)NC(=O)[C@H](CC(C)C)NC(=O)[C@H](CCCCN)NC(=O)CNC(=O)[C@@H](NC(=O)[C@@H](N)CC(C)C)C(C)C)C(C)C)C(C)C)CSSC[C@@H](C(=O)O)NC1=O`, “log2 fold change” read 0.635 (RNA-seq, refers to: Snhg11 mRNA; mouse traumatic brain injury, frontal cortex and hippocampus; dose not given; reference: TBI plus compound vs TBI).
